Results pooled from the literature.
Cell line: Caco-2

`F[P-](F)(F)(F)(F)F.OCP(CO)CO.OCP(CO)CO.OCP(CO)CO.OCP(CO)CO.[Cu+]` gave an IC50 of 0.48 µM (cell growth or viability, MTT; 72 h).
With `COC(=O)C1CN1S(=O)(=O)c1c(C)cc(C)cc1C` (centres unmarked) the IC50 was 10 µM (cell growth or viability, MTT; 48 h).
`O=C(Nc1nc2c(ncn2C2OC(COP(=O)(O)O)C(O)C2O)c(=O)[nH]1)c1ccccc1` (centres unmarked) has an IC50 of over 100 µM (cell growth or viability).
With `CCCCc1ccc(S(=O)(=O)N2CC2C(=O)OC)cc1` (centres unmarked) the IC50 was 202 µM (cell growth or viability, MTT; 48 h).
For `N=C(N)NCCC[C@H](NC(=O)[C@H](Cc1c[nH]c2ccccc12)NC(=O)[C@H](CCC(N)=O)NC(=O)[C@H](Cc1c[nH]c2ccccc12)NC(=O)[C@H](CCCNC(=N)N)NC(=O)[C@H](Cc1c[nH]c2ccccc12)NC(=O)[C@H](CCC(N)=O)NC(=O)[C@H](Cc1c[nH]c2ccccc12)NC(=O)[C@H](CCCNC(=N)N)NC(=O)CCCCCNC(=O)CCCC[C@@H]1SC[C@@H]2NC(=O)N[C@@H]21)C(N)=O`, the IC50 was over 110 µM (cell growth or viability, MTT).
With `CC(C)C[C@H](NC(=O)[C@H](C)NC(=O)[C@H](C)NC(=O)[C@H](CCC(N)=O)NC(=O)[C@H](C)NC(=O)[C@H](CO)NC(=O)[C@H](CC(C)C)NC(=O)[C@H](C)NC(=O)[C@@H](NC(=O)[C@H](C)NC(=O)[C@H](Cc1ccc(O)cc1)NC(=O)[C@H](CO)NC(=O)[C@H](CCCCN)NC(=O)[C@H](C)NC(=O)[C@H](Cc1ccccc1)NC(=O)[C@H](CCCCN)NC(=O)[C@H](C)NC(=O)[C@H](Cc1ccccc1)NC(=O)[C@H](CCCCN)NC(=O)[C@H](CCCCN)NC(=O)[C@H](C)NC(=O)[C@H](Cc1ccccc1)NC(=O)[C@H](CCCCN)NC(=O)[C@H](C)NC(=O)[C@H](Cc1ccccc1)NC(=O)[C@H](CCCCN)NC(=O)[C@H](CCCCN)NC(=O)[C@H](C)NC(=O)[C@H](Cc1ccccc1)NC(=O)[C@H](CCCCN)NC(=O)[C@H](C)NC(=O)[C@H](Cc1ccccc1)NC(=O)[C@@H](N)CCCCN)C(C)C)C(=O)N[C@@H](C)C(=O)N[C@@H](CCCNC(=N)N)C(=O)N[C@@H](CCCNC(=N)N)C(=O)O` the IC50 was 52.2 µM (viable cell number, MTS; 6 h).
The IC50 of `CC1(C)OC2C(COP(=O)(O)O)OC(n3cnc4c(=O)[nH]c(NC(=O)c5ccccc5)nc43)C2O1` (centres unmarked) is reported as over 100 µM (cell growth or viability).
For `N=C(N)NCCC[C@H](NC(=O)[C@H](Cc1c[nH]c2ccccc12)NC(=O)[C@H](CCC(N)=O)NC(=O)[C@H](Cc1c[nH]c2ccccc12)NC(=O)[C@H](CCCN)NC(=O)[C@H](Cc1c[nH]c2ccccc12)NC(=O)[C@H](CCC(N)=O)NC(=O)[C@H](Cc1c[nH]c2ccccc12)NC(=O)[C@@H](N)CCCNC(=N)N)C(N)=O`, the IC50 was 64 µM (cell growth or viability, MTT).

Some of these lines once more:
With `CC(C)C[C@H](NC(=O)[C@H](C)NC(=O)[C@H](C)NC(=O)[C@H](CCC(N)=O)NC(=O)[C@H](C)NC(=O)[C@H](CO)NC(=O)[C@H](CC(C)C)NC(=O)[C@H](C)NC(=O)[C@@H](NC(=O)[C@H](C)NC(=O)[C@H](Cc1ccc(O)cc1)NC(=O)[C@H](CO)NC(=O)[C@H](CCCCN)NC(=O)[C@H](C)NC(=O)[C@H](Cc1ccccc1)NC(=O)[C@H](CCCCN)NC(=O)[C@H](C)NC(=O)[C@H](Cc1ccccc1)NC(=O)[C@H](CCCCN)NC(=O)[C@H](CCCCN)NC(=O)[C@H](C)NC(=O)[C@H](Cc1ccccc1)NC(=O)[C@H](CCCCN)NC(=O)[C@H](C)NC(=O)[C@H](Cc1ccccc1)NC(=O)[C@H](CCCCN)NC(=O)[C@H](CCCCN)NC(=O)[C@H](C)NC(=O)[C@H](Cc1ccccc1)NC(=O)[C@H](CCCCN)NC(=O)[C@H](C)NC(=O)[C@H](Cc1ccccc1)NC(=O)[C@@H](N)CCCCN)C(C)C)C(=O)N[C@@H](C)C(=O)N[C@@H](CCCNC(=N)N)C(=O)N[C@@H](CCCNC(=N)N)C(=O)O` the IC50 was 52.2 µM (viable cell number, MTS; 6 h).
